Assay results of several laboratories.
A part holds a random share of what one study measured.

Study 1 — technique: protein binding microarray; form: double-stranded DNA, one strand shown; matrix: in vitro; concentration: not given; relative to: not given; reading: higher = stronger binding
Target: Histone acetyltransferase KAT6A, both winged helices, GST fusion (KAT6A, Homo sapiens, UniProt Q92794, residues 1-181)
Setting: 8-mer, flanks averaged, mean of 2 arrays, mostly near background
Target sequence (chain): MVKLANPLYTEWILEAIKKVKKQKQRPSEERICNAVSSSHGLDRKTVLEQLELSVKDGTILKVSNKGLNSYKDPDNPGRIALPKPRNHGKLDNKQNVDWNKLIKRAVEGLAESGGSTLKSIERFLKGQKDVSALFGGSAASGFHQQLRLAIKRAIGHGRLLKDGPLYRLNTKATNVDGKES
Strand	E-score
ATGTACCG	0.115
ATTTGCTA	-0.143
CGTTAGGC	0.152
ATATCGAA	0.0264
ACTTCACT	-0.0939
GATAGCGC	0.316
ACCTCGGC	0.11
ATCTGCCG	0.227
ATCACCAA	-0.16
CATTTACA	-0.0563
AACTCTAG	-0.216
GGTGTCTA	-0.146
GATTCTAC	0.0169
GAGCGTTA	0.0895
CCTTACCG	0.148
AATCACAC	-0.107
AACGCCCT	0.0236
GCTTGGCC	0.0768
ACACTAAC	0.0335
CATTAGGG	-0.147
TACCATCA	-0.168

Study 2 — technique: RNA Bind-n-Seq; form: RNA; matrix: in vitro; concentration: 200 nM; setting: whole 134-nt RNA, ends assumed; together with: 150 mM LiCl; relative to: input library; reading: higher = stronger binding; library: 7-deaza-guanosine replaces G
Target: Fragile X messenger ribonucleoprotein 1, C-terminal low-complexity region (Fmr1, Mus musculus, UniProt P35922)
Constant ends, left off below: GGGAGUUCUACAGUCCGACGAUC … UGGAAUUCUCGGGUGUCAAGG
Strand	log2 enrichment
GUCCUGUGCUACACAUCGUAUGUACCGAAUCGGGGUUUUUGGGGAAAAAGGGGAGGGGAAAGUAUUAUGUUACGCCGUUCGGAUCUGCAC	-0.395
GUCCUGUGCUACACAUCGUAUGUACCGAAUCAAAUUUUUAAACCCCCCCAAACCCAAAAAAGUAUUAUGUUACGCCGUUCGGAUCUGCAC	1.3
UGGGAGGUGGAUUUUGUUUAUUUUUUUAGCUCAUUUCCAGGGGUGGGAAUUUUUUUUUAAUAUGUGUCUUGAAUAAAGUUGUUUUUGAAA	0.194
GUCCUGUGCUACACAUCGUAUGUACCGAAUCGGUUUUUGGGGUUUUUGGGUUUUUGGGAAAGUAUUAUGUUACGCCGUUCGGAUCUGCAC	-0.703
CCUCAAGUCCUGUGCUACACAUCGUAUGUACCGAAUCGGGAGGGGAGGGAGGGAAAGUAUUAUGUUACGCCGUUCGGAUCUGCACUUCCA	-1.09
CACAGACAACACGCACCCACACAGACACAGAGGGAAGGGGUUGGGAUGGGGACAGGGUGCACACCAGGGCGGGGUAGGACCCCAGCCCCU	0.598
GCAGGAAGUAAAAACAAAUGGAAAUGCUUCGGAUAGUGGCCGGGGUGGGGGUUGCUAAGGAAAGGGUGGGAUGGGAGUGGGUAAAGAGUU	1.56
ACCAUGCAGGUGGGCAUCUUUGGGAAGUGGGGCAAGGGGGGGAUAGGGAGGGGGGUAACACUUUGGGAACAGGUGGCCCCAGGUCGUUUC	1.55
UAACUUUAGAGGAGGAUCUGAUGGAUAUGGCAGUGGACGUGGAUUUGGGGAUGGCUAUAAUGGGUAUUGAGGAGGACCUGGAGGUGGCAA	0.0876
CAAGUCCUGUGCUACACAUCGUAUGUACCGAAUCGGGUUUGGGUUUGGGUUUGGGAAAGUAUUAUGUUACGCCGUUCGGAUCUGCACUUC	-1.22
GUGCUGGCUGGCCACGGUCACCUGUAUUCCCGCAUCCCAGGCCUGCUCAGCCCCCAUCCCCUGCUGCAGCUGAGCUACACGGCCACCGAC	2.13

Study 3 — technique: competition protein-binding microarray; form: double-stranded DNA, one strand shown; matrix: in vitro; concentration: 2 µM; together with: Pho4 competitor, 0.05 µM; reading: higher = stronger binding; constant ends, left off below: … GTCTTGATTCGCTTGACGCTGCTG
Target: Centromere-binding protein 1, full length, His-tagged (CBF1, Saccharomyces cerevisiae, UniProt P17106, residues 1-351)
UniProt P17106, sequence (whole entry, looked up): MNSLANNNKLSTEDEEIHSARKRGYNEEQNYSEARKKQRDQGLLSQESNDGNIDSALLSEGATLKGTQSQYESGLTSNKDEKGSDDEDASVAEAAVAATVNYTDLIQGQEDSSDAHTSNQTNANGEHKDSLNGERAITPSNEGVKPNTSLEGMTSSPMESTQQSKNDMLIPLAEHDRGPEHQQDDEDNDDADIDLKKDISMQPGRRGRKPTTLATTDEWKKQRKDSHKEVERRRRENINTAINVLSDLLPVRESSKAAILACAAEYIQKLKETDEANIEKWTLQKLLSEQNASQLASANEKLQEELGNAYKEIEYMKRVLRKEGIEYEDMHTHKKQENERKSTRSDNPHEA
Setting: whole 60-bp probe, lowest competitor level
Strand	fluorescence intensity [a.u.]
ATTCTCTATTTGTATCGCATGCGCGGTCGCTGTTCT	82.8
TCACTTTAACCACCATTTCTTTAAGCTAAAGTTTAG	84.8
TTCCTAAAGGAGCCCGGCGTGCCAGCCATCAGAATT	59.6
AGTTGGTATATTTTGCACGTGTAGTCTAATGTTCTT	2030
CTAACGAAGGTTTGTCACTGCACTTACAAGCCAAGT	76.3
CATACCCAACCTTGTTTTGTGGGTGAAGATATTTGT	82.2
CACAATGTGCGGAATCACCTGCCTGTTTCAATAATG	176
GAAATTTTACTGATTGGCGTGGGACAGTTTTTGTTA	67.8
GTGTCAAACAATGTTTACGTTATTCTTTGGTGGGAA	78.6
AAAATATTCATTTTGCACGTTTCAATGCTTGACAGA	162
GAGCCCTCTGTATTTCATGTGACGGGAGTGTAATTT	212
ATATCTATGGACGTCTTCGTGCCAGAAAGCGGCGAA	81.9
TTGAATACATAATCGCACGTGATGGAACAATAAAGA	4690
CTTCTGTAAATTTGTCACGTGTTTTGACGCGCCCCG	4700
TGCAAATATCGAAAGCACGTTTTTACTCAGCCCGTC	273
ACTACACTAACCGCCCATGTGTTGGATGGTGTAACT	96.4
CATACCCAACCTTGAGGCGTGGGTGAAGATATTTGT	63.9
GTATGCCTAAGGAAGCATGTGACAGGTATGCCCACT	833
AAAGCGGTAATTTGTATTGTGGGTGCAGATATCTAT	78.4
TGCGCAACAACTTGTCACAGGACTTTATGTCTAGAA	125
GTCTTGTCTCATTGTCCTGTGGGTGTCCCCACTTCA	89.9
TCTGACCCCGATCCGCACGCTACTGCGTCGTCGATC	51.6
CGTCCTAGCGATTGATAAGTGGGTGCCATGAGGAAG	71.6
AAAGCGGTAATTTGTCACCTGACTTCACATATCTAT	2170
AAGAAGATTTACTCTCCCGTGATGGCGGGCCAATCA	133

Study 4 — technique: RNA Bind-n-Seq; form: RNA; matrix: in vitro; concentration: 365 nM; relative to: no-protein control; reading: higher = stronger binding
Target: RNA binding protein fox-1 homolog 2, RRM domain, GST-SBP tag (RBFOX2, Homo sapiens, UniProt O43251-10, residues 100-194)
Setting: natural RNA segment, single round, ends assumed
Constant ends, left off below: GGGAGUUCUACAGUCCGACGAUC … UGGAAUUCUCGGGUGCCAA
Construct (chain): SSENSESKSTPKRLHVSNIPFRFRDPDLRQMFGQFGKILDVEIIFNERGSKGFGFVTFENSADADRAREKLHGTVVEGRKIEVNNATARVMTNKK
Strand	RBNS enrichment (R)
AAAUCAUUGAAGGUCUGGAUCCCUUUCUCUGAAUGGAGAGAUUGAGAGGGAUGUCGGGCAGUUCCCAUUAGAUUUAGUGGCCUUCAUGUUAUUCAGAAUUGUUUUGGUGA	1.37
AGUUGAAUGCCGGGGAGAAACCUGUCCAAUUUUAGCAGGUUUGAAGGGAGGAUCUUCUUCAGUUGUAGUUUGGAAGGUUCCUUGGUGUGGCUCAUGAAAUCACAGAGCUC	0.354
CAUUGUUGAGAUCAGUGGGCAUAUACCAAGCUCCACCCCCAGUGUCAGCUUUGUGCAAUUUGCCUUUACCUCACCAAAAAUACCUACUUUAAUAUUUCCUCCUGUGUCCU	0.433
GAGUGUCCUGCCUGCCUUGGCUGGAGGGACACCUCUCCUGGGUGUGGAGACAGCUUGGUUCCCUUUCCCUAGCUCCCUGGUGGGUGAAUGCCACCUCCUGAGAUCCUCAC	0.229
UCCACUUCCUAGAAGUUUAUCCAGUGAACUAGACACUAAGCCAAGCACAUGUCCAGGAGGGUUGCUGUCGCACUAGCACCUAGGUAACACCAACUAGAUUAUUAUCAGGU	0.497
AGGCCGCCCCAGCCUCUGAGCCCCUGGGACUGCUGCUUCUUAACCCCAGUAAGCCACUGCCACACGUCUGACCCUCUCCACCCCAUAGUGACCGGCUGCUUUUCCCUAAG	0.6
GAAGACCCUUUAGCUACCCCUCCUAUUGCUACUCGUGCACCUUCCAUUACACUCCCCCCUACCUUUCGCCCCCUCCUCACCAUUAUUGAGACCACCAAAGAUUCCCUGUC	1.66
CACGACUUCCACCGUGUGUACAUCAGUGAACCUGAAACUCAGGGGACUUUGAACACCCGAGGGGCUGUGCCCCAGCUCCCCACUCCCCCAGGGGCAAUGGCCCCAACCUC	0.398
AUCUGAGACCCACCCAUAUCCUAGCUUUUAACUGUCUUCGCUCCACCCUCAAAGAUGCUACUGGGCUUCCUGUGCAUCGCAUUGCUAAAGAGAACUGAUUUCCUAGCAUU	1.88
CGUUCCCUCCCCUGGGCCUGACUGAGCCUGCUCAUUGUUUUUCCCUUUAUUACACAGGACAGCCAGGGGAGGAGGGGGGCCCAGCCCUGGGAGGCUGGUGGGAGGCAGGG	0.674
CUCUCUCCCAAUAAGAAGCAGGUGCCUUUGGGGAAUGCUCCAACCUGUUUCAUCCCCAAAAGUUUUUCCGAGGACACUGUCAUGCACGACCUCACAUUUCUAAAAGACCU	3.96
GCAGUGUAAAUGCUAGGCCUCAGAAAUCUGAAAAAAGAUAGCAAAGAAAGUGGGUUUGGAACGUAUGGUUUGGAAUUGCUUGUCAGACUCUGAAGAAGAUGUGUUUCAGC	2.16
